Experimental data pooled from the literature.
Every numbered part comes from another study and shows a few of its results, in no order. Several values in a cell are separate wells, animals, samples, runs or records.

Block 1
Cell line: A-375
Tested at: 100 µM
Time: 36 h
Structure (SMILES) | viability
CN(C)CCc1c[nH]c2ccc(CS(=O)(=O)N3CCCC3)cc12 | 104%
O=C(O)c1ccccc1OP(=O)(O)O | 113%
CC(C)NCC(O)COc1ccc(CCOCC2CC2)cc1 (stereo not shown) | 111%
CCOC(=O)C1=C(COCCN)NC(C)=C(C(=O)OC)[C@@H]1c1ccccc1Cl | 0.405%
NS(=O)(=O)c1cc2c(cc1C(F)(F)F)NC(Cc1ccccc1)NS2(=O)=O (stereo not shown) | 79%
CC(C)NCC(O)c1cc(O)cc(O)c1 (stereo not shown) | 103%
O=c1cc(-c2ccc(O)cc2)oc2cc(O)cc(O)c12 | 24.7%
CCN[C@H]1CN(CCCOC)S(=O)(=O)c2sc(S(N)(=O)=O)cc21 | 108%
CC1=C(/C=C/C(C)=C/C=C/C(C)=C\C(=O)O)C(C)(C)CCC1 | 43.8%

Block 2
SMILES: Cc1cc2c(C(N)=O)c(N)n(-c3c(C)ccc(O)c3C)c2nc1C
Baseline: DMSO
cell line | test | conditions | cell growth
NCI-H1048 | MTT | 13.7 nM, 5 d | 101% and 99.2%
NCI-H446 | Vi-Cell counting | 3.33 µM, 5 days | 53.3% and 45.9%
NCI-H1048 | MTT | 511 pM, 5 d | 97.3% and 102%
NCI-H69 | MTT | 511 pM, 5 d | 66% and 86.2%
NCI-H1048 | MTT | 10 µM, 5 d | 0.0741% and 0.0926%
NCI-H1048 | MTT | 3.33 µM, 5 d | 5.57% and 8.44%
NCI-H69 | MTT | 10 µM, 5 d | 5.49% and 7.1%

Block 3
Target: Tyrosine-protein kinase Fes/Fps (FES, Homo sapiens, UniProt P07332)
UniProt P07332, sequence (whole entry, looked up): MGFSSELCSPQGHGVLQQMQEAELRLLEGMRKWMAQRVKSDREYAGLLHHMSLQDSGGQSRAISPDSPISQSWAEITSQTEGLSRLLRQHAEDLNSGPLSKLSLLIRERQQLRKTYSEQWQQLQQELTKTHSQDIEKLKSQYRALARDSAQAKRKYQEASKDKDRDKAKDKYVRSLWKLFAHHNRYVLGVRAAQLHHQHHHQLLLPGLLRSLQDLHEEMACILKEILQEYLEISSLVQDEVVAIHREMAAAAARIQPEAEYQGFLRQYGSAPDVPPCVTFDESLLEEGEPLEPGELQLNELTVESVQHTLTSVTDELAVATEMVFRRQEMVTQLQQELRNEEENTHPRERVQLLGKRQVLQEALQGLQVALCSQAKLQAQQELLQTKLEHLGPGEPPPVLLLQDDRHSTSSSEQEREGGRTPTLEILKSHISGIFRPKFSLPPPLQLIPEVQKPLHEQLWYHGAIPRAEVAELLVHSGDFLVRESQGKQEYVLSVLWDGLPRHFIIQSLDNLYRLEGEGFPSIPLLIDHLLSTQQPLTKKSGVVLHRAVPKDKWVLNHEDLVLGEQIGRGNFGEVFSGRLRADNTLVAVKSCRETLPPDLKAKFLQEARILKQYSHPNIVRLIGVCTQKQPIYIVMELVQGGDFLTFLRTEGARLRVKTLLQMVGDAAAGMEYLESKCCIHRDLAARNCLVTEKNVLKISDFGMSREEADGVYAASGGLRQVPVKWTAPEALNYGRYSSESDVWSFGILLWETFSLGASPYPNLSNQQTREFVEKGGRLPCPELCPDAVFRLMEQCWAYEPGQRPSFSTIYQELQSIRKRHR
Read-out: enzyme activity
Action: inhibitor
Tested at: 0.5 µM
Baseline: control
SMILES | remaining activity [%]
COc1ccc(S(=O)(=O)N(CCO)c2ccccc2CN(C)CC=Cc2ccc(Cl)cc2)cc1 | 96.3
N#CC(=C(N)Sc1ccc(N)cc1)c1ccccc1C(F)(F)F | 98
CSc1nc(-c2ccnc(N[C@@H](C)c3ccccc3)c2)c(-c2ccc(F)cc2)[nH]1 (racemic) | 93.8
CCc1[nH]c(-c2ccc(OC)cc2)nc1-c1ccncc1 | 100
Fc1ccc(-c2nc3n(c2-c2ccncc2)CCS3)cc1 | 104
Oc1ccc(Nc2nc(-c3ccc(Cl)cc3)cs2)cc1 | 103
O=S(=O)(NCCNC/C=C/c1ccc(Br)cc1)c1cccc2cnccc12 | 115
CC(C)(C)n1nc(Cc2cccc3ccccc23)c2c(N)ncnc21 | 96.8
O=C1NC(=O)C(c2c[nH]c3ccccc23)=C1c1c[nH]c2ccccc12 | 99.8
Cc1cncc2cccc(S(=O)(=O)N3CCCN(C(=O)CN)C[C@@H]3C)c12 | 102
Cc1ccc(NC2=CC(=O)c3sc(C)nc3C2=O)cc1 | 101
CC(=O)c1ccc(N2CCOCC2)cc1O | 100
Cc1cc(Nc2nc(-c3ccccc3)nc3ccccc23)n[nH]1 | 94.7
CC#CC(=O)Nc1cc2c(Nc3ccc(F)c(Cl)c3)ncnc2cn1 | 99.4
Nc1nccc(-c2c(-c3ccc(F)cc3)ncn2C2CCNCC2)n1 | 103
CCCC(=O)Oc1ccc2[nH]c(C(=O)c3cc4ccccc4[nH]3)cc2c1 | 97.8
NC(=O)c1ccc(N(C(N)=O)c2c(F)cccc2F)nc1-c1ccc(F)cc1F | 99
CC[n+]1c(/C=C/N(C)c2ccccc2)n(-c2ccccc2)c2ccc(-c3nc4ccccc4s3)cc21 | 101
O=C1Cc2c([nH]c3ccc([N+](=O)[O-])cc23)-c2ccccc2N1 | 46.3

Block 4
Cell line: normal adjacent epithelium patient-derived organoids
Technique: CellTiter-Glo
Tested at: 1 µM
Setting: mean of five organoid lines
Baseline: DMSO
SMILES | viability
Cc1c(N2CCNCC2)nc2ccc(Br)cc2c1C(=O)NC[C@H](CCC(=O)O)c1ccccc1Cl | 102%
NS(=O)(=O)c1cc(NC(=O)C2(c3ccccc3Cl)CC2)ccc1Oc1cccc(Cl)c1 | 102%
O=C(N1CCS(=O)(=O)CC1)N1C[C@H](c2ccc(OC(F)(F)F)cc2)C[C@H](c2nc(C3CC3)no2)C1 | 109%
CC(=O)Nc1c(F)cc(C(=O)N[C@H]2CC[C@H](O)CC2)cc1O[C@@H](C)c1ccccc1 | 91.8%
Cc1cc(NC(=O)c2cccc(S(F)(F)(F)(F)F)c2)cc(-n2ccn3nc(-c4cccnc4)cc23)c1 | 95.1%
CC(=O)C1=C(C)N(c2cccc(C(F)(F)F)c2)C(=O)N[C@@H]1c1ccc(C#N)nc1 | 107%
C[C@@H]1CN(c2cc(-c3nn(C)c4ccc(OC5(C)CC5)cc34)ncn2)C[C@H](C)O1 | 99.7%
O=C(Nc1cccnn1)N1CCC(=Cc2cccc(Oc3ccc(C(F)(F)F)cn3)c2)CC1 | 99.3%
O=c1nc(-c2ccccn2)sc2ccccc12 | 102%
Cn1cc(Cl)c2c(Oc3c(F)cc(Nc4cc(Cl)nc(N)n4)cc3F)ccnc21 | 124%
O=C(NCc1ncc(C(F)(F)F)cc1Cl)c1ccc2c(c1)C1(CCS(=O)(=O)CC1)[C@@H](C1CC1)N2S(=O)(=O)c1ccc(F)cc1 | 107%
O=C(O)c1cc(-c2ccc(C3CCNCC3)cc2)c2ccc(-c3ccc(C(F)(F)F)cc3)cc2c1 | 108%
c1ccc(N2CCN(Cc3nc4ccccc4[nH]3)CC2)nc1 | 111%
Cc1c(Oc2ccc(F)cc2)c(OC(C)C)nn1-c1ccc(C2CC2)cn1 | 118%

Repeated from above (block 3):
SMILES | remaining activity [%]
Cc1cc(Nc2nc(-c3ccccc3)nc3ccccc23)n[nH]1 | 94.7
Cc1ccc(NC2=CC(=O)c3sc(C)nc3C2=O)cc1 | 101
CC[n+]1c(/C=C/N(C)c2ccccc2)n(-c2ccccc2)c2ccc(-c3nc4ccccc4s3)cc21 | 101
Nc1nccc(-c2c(-c3ccc(F)cc3)ncn2C2CCNCC2)n1 | 103
